Values quoted from earlier work as cited in several papers.
Protocols differ between the studies behind these lines. Numbers after ± are the reported error.
CNR1: Cannabinoid receptor 1 (CNR1, Homo sapiens, UniProt P21554)
UniProt P21554, sequence (whole entry, looked up): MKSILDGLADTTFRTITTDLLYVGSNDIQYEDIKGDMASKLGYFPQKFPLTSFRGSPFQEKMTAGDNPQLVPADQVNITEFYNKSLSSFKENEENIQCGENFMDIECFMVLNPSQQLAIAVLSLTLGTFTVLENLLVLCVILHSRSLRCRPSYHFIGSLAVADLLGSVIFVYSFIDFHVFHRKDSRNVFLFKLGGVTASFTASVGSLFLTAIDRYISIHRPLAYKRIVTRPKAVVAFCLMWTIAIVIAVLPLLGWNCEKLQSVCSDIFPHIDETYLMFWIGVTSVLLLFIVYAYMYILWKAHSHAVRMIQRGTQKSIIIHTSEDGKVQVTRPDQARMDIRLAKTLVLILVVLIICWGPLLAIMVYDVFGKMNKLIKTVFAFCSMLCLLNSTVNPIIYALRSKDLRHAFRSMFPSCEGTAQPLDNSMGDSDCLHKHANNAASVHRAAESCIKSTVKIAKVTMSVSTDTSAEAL
UniProt Q8NBP7, sequence (whole entry, looked up): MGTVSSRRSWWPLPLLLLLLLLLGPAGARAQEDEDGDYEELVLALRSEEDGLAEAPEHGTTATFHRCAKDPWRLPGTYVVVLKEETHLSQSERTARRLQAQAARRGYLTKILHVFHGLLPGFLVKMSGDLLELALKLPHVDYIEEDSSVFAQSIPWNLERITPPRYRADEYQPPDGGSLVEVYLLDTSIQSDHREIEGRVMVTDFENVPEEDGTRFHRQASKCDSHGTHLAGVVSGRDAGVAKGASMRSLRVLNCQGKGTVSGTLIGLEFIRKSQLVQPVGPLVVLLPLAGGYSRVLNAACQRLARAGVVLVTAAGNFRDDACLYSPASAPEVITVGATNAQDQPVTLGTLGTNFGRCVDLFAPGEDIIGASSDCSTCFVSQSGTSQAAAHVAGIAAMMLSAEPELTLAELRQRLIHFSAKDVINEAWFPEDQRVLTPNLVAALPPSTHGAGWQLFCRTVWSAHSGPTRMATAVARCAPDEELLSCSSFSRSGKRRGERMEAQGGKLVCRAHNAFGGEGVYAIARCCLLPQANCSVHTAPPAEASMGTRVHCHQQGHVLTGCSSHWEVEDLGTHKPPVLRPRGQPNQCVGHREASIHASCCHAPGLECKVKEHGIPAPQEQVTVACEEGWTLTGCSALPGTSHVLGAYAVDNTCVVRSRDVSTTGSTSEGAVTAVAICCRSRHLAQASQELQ
UniProt P27338, sequence (whole entry, looked up): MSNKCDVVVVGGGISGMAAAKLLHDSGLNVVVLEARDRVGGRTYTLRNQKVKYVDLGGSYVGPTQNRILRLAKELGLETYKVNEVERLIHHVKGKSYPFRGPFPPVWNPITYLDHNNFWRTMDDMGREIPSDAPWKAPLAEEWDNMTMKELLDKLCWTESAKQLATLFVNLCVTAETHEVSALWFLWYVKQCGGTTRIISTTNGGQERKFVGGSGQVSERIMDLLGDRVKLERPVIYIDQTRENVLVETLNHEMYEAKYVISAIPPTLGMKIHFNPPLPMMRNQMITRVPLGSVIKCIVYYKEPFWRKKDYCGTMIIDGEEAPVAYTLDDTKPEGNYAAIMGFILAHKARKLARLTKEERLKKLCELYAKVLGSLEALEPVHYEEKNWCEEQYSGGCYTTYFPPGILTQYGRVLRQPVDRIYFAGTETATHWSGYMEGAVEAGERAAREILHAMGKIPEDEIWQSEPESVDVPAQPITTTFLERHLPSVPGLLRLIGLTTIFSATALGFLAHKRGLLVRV
UniProt P21397, sequence (whole entry, looked up): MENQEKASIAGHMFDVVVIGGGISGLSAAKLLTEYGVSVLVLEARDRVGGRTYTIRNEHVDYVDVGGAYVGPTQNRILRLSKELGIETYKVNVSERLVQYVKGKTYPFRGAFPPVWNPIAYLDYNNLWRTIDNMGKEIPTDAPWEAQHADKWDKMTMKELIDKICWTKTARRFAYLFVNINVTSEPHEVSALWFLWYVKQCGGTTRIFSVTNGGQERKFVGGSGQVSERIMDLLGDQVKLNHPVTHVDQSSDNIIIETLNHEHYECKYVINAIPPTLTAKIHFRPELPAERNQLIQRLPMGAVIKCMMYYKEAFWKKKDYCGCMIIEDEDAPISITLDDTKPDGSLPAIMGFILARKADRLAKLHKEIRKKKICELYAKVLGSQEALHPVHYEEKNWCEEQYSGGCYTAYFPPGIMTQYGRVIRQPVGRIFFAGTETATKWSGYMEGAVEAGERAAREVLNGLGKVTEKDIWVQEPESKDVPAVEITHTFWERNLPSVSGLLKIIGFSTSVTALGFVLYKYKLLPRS
UniProt Q86U86, sequence (whole entry, looked up): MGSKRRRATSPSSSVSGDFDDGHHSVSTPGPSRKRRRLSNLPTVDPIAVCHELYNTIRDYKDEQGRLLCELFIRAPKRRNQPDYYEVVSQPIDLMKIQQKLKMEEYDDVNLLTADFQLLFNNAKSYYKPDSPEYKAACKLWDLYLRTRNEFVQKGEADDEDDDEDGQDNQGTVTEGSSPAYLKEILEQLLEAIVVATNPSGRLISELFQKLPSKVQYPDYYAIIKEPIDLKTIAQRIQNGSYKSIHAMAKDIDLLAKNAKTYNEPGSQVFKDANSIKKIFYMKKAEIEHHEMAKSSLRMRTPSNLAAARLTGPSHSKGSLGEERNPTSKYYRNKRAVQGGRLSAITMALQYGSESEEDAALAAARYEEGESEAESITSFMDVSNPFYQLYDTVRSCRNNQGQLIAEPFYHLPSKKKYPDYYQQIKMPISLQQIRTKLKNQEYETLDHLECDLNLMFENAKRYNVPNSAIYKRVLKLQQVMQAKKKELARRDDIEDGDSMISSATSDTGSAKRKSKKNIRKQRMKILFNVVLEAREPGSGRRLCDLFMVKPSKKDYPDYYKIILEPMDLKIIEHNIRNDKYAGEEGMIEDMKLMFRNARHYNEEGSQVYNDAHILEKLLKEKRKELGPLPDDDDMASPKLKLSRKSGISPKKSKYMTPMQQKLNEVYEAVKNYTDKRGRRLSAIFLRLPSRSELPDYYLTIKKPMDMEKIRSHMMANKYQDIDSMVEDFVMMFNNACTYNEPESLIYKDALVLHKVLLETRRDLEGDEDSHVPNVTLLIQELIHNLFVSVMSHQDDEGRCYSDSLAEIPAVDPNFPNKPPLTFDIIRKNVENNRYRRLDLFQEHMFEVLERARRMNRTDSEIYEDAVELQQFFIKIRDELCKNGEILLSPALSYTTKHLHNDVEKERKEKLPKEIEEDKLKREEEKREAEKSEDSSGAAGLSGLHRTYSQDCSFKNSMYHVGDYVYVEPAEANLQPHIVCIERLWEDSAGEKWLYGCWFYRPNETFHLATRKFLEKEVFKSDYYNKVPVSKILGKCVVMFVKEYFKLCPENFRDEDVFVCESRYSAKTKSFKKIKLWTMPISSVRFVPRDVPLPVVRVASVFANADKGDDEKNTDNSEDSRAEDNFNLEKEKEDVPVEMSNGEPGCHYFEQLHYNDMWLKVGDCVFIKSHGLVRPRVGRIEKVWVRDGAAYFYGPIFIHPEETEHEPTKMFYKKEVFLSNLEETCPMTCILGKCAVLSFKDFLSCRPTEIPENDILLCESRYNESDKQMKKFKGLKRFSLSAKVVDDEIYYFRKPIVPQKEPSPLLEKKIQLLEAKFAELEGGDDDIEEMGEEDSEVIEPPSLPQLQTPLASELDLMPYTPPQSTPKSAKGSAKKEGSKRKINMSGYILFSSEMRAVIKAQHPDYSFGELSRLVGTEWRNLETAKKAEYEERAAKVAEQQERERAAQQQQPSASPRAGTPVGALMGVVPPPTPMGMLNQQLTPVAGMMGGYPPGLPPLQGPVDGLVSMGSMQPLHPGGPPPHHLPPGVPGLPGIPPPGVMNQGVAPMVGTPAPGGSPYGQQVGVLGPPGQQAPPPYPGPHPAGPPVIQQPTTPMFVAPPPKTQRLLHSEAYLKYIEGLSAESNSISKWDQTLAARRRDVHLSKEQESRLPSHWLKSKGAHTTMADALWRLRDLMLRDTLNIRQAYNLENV
UniProt Q16740, sequence (whole entry, looked up): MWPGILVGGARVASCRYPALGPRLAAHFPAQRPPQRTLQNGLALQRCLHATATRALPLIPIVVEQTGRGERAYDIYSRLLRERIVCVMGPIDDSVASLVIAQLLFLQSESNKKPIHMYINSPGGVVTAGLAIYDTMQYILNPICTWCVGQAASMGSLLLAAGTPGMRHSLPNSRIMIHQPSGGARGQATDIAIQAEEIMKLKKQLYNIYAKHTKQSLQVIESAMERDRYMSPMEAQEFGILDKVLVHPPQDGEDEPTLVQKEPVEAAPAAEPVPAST
UniProt P63104, sequence (whole entry, looked up): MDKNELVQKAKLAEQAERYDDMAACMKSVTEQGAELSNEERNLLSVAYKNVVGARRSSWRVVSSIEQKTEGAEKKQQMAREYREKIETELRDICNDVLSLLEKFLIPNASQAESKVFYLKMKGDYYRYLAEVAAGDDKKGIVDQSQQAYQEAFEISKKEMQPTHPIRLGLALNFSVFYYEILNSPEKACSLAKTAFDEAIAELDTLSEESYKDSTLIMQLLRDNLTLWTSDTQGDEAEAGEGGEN
UniProt Q96LB2, sequence (whole entry, looked up): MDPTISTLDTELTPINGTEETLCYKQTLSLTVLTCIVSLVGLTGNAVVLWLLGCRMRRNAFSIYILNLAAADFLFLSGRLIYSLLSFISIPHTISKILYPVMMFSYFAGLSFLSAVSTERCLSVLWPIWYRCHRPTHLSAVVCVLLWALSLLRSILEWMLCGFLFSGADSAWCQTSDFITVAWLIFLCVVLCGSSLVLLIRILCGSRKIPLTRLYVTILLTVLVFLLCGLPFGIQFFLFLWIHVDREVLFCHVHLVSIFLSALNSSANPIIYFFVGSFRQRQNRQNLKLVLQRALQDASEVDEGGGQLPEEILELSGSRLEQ

Structure (SMILES) = C#CCNc1ccc(/C=C2\SC(=O)N(CN(C)CCC(Oc3ccc(C(F)(F)F)cc3)c3ccccc3)C2=O)cc1 (centres unmarked); target = Amine oxidase [flavin-containing] A (MAOA, Homo sapiens, UniProt P21397); test = inhibitor; endpoint = IC50; result = 181 nM
Structure (SMILES) = C[C@H](NC(=O)[C@H](CCC(N)=O)NC(=O)[C@H](C)NC(=O)[C@H](CCCCN)NC(=O)[C@H](CCC(N)=O)NC(=O)[C@H](C)NC(=O)[C@H](CCCCN)NC(=O)[C@H](CCC(N)=O)NC(=O)[C@H](C)NC(=O)[C@H](CCC(N)=O)NC(=O)[C@H](CCCCN)NC(=O)[C@H](C)NC(=O)[C@H](CCC(N)=O)NC(=O)[C@H](CCCCN)NC(=O)[C@H](C)NC(=O)[C@H](CCC(N)=O)NC(=O)[C@H](C)NC(=O)[C@H](CCCCN)NC(=O)[C@H](CCC(N)=O)NC(=O)[C@H](C)NC(=O)[C@H](CCCCN)NC(=O)[C@H](CO)NC(=O)[C@H](Cc1ccc(O)cc1)NC(=O)CNC(=O)CNC(=O)CN)C(=O)N[C@@H](CCCCN)C(=O)N[C@@H](CCC(N)=O)C(=O)N[C@@H](C)C(=O)N[C@@H](CCCCN)C(=O)N[C@@H](CCC(N)=O)C(=O)O; target = heparin; test = binding; endpoint = Kd; result = 640 nM
Structure (SMILES) = CCCCCCCCCc1c(C(=O)NCCc2ccc(N3CCCCC3)cc2)[nH]c2ccc(Cl)cc12; target = CNR1; test = allosteric modulator, radioligand binding; setting = with: [3H]CP55,940; endpoint = Kb; result = 260 nM
Structure (SMILES) = COc1cc(/C=C/c2nnc(-c3ccc(C(F)(F)F)cc3)o2)ccc1O; target = Acetylcholinesterase (ACHE, Homo sapiens, UniProt P22303); endpoint = IC50; result = 55 ± 3 nM
Structure (SMILES) = CN(CCCCCNc1c2c(nc3ccccc13)CCCC2)C1CCC(c2ccc(Cl)c(Cl)c2)c2ccccc21 (centres unmarked); target = Amine oxidase [flavin-containing] B (MAOB, Homo sapiens, UniProt P27338); test = inhibitor; endpoint = IC50; result = 31 nM
Structure (SMILES) = Cn1c2c(c(=O)n(Cc3ccc(Cl)cc3)c1=O)CN(Cc1cccc(C#N)c1)CC2; target = ATP-dependent Clp protease proteolytic subunit, mitochondrial (CLPP, Homo sapiens, UniProt Q16740); test = enzyme activity; endpoint = EC50; result = 120 nM
Structure (SMILES) = C=C(C)C12OC3(c4ccccc4)OC1C1C4OC4(CO)C(O)C4(O)C(=O)C(C)=CC4C1(O3)C(C)C2OC(=O)c1ccccc1 (centres unmarked); target = Importin subunit beta-1 (KPNB1, Homo sapiens, UniProt Q14974); test = binding, SPR; endpoint = Kd; result = 229 nM
Structure (SMILES) = O=C(C=CN1C2CCC1c1ncnc(NC3CC3)c1C2)c1ccccc1O (centres unmarked); target = Protein polybromo-1, BD5 (PBRM1, Homo sapiens, UniProt Q86U86); test = binding; endpoint = Kd; result = 30 nM
Structure (SMILES) = COCC1OC(OC2C3=C(C(C)C)CCC3(C)C=C3C(CCC3(O)COC)C(C)C2O)C(O)C2OC3OC12OC3(C)C1CO1 (centres unmarked); target = 14-3-3 protein zeta/delta, with phosphorylated C-RAF (YWHAZ, Homo sapiens, UniProt P63104); endpoint = EC50; result = 65400 ± 7700 nM
Structure (SMILES) = CSCC[C@H](NC(=O)[C@H](Cc1c[nH]c2ccccc12)NC(=O)[C@H](Cc1c[nH]c2ccccc12)NC(=O)[C@H](CCC(=O)O)NC(=O)[C@@H]1CCCN1C(=O)[C@H](CCCNC(=N)N)NC(=O)CNC(=O)[C@@H](N)C(C)C)C(=O)N[C@@H](CC(=O)O)C(=O)N[C@@H](Cc1ccc(O)cc1)C(=O)N[C@@H](CCC(N)=O)C(=O)N[C@@H](CCCCN)C(=O)N[C@@H](CCCNC(=N)N)C(=O)N[C@@H](Cc1ccc(O)cc1)C(=O)NCC(=O)O; target = Mas-related G-protein coupled receptor member X1 (MRGPRX1, Homo sapiens, UniProt Q96LB2); test = agonist; test system = HEK293 expressing target; endpoint = EC50; result = 14 nM
Structure (SMILES) = CC[C@H](C)[C@H](NC(=O)[C@@H]1CCCN1C(=O)[C@@H]1CCCN1C(=O)[C@@H]1CCCN1C(=O)[C@H](C)NC(=O)[C@@H]1CCCN1C(=O)[C@H](CCCNC(=N)N)NC(=O)[C@H](CC(C)C)NC(=O)[C@H](CO)NC(=O)[C@@H]1CCCN1C(=O)[C@H](C)NC(=O)[C@H](CCC(=O)O)NC(=O)[C@H](CCC(=O)O)NC(=O)[C@H](CCCNC(=N)N)NC(=O)[C@H](CCCCN)NC(=O)[C@H](CCCCN)NC(=O)[C@H](CC(=O)O)NC(=O)[C@H](CC(C)C)NC(=O)[C@@H]1CCCN1C(=O)[C@H](CCCNC(=N)N)NC(=O)[C@H](Cc1c[nH]cn1)NC(=O)CN)C(=O)N[C@@H](CO)C(=O)NCC(=O)NCC(=O)NCC(=O)N[C@@H](Cc1ccc(O)cc1)C(=O)N[C@@H](CCCNC(=N)N)C(=O)O; target = VE-cadherin; test = binding; endpoint = Kd; result = 267000 nM
Structure (SMILES) = CC(=O)N[C@H]1[C@@H](OC[C@H](NC(=O)CNC(=O)[C@@H]2CCCN2C(=O)[C@H](C)NC(=O)[C@@H]2CCCN2C(=O)[C@@H](N)CCCNC(=N)N)C(=O)N[C@H](C(=O)N[C@@H](C)C(=O)N2CCC[C@H]2C(=O)N2CCC[C@H]2C(=O)N[C@@H](C)C(=O)N[C@@H](Cc2c[nH]cn2)C(=O)NCC(=O)O)[C@@H](C)O)O[C@H](CO)[C@H](O)[C@@H]1O; target = 14 A monoclonal antibody; test = SPR; endpoint = Kd; result = 439 nM
Structure (SMILES) = CC(=O)N[C@H](C(=O)N[C@H](C(=O)N[C@@H](Cc1ccccc1)C(=O)N[C@H](C(=O)N[C@@H](CO)C(=O)N[C@@H](Cc1c[nH]c2ccccc12)C(=O)N[C@@H](CCC(=O)O)C(=O)N[C@@H](CCC(=O)O)C(=O)N[C@@H](Cc1ccc(O)cc1)C(=O)N[C@@H](CC(C)C)C(=O)N[C@@H](CC(=O)O)C(=O)N[C@@H](Cc1c[nH]c2ccccc12)C(=O)N[C@H](C(N)=O)C(C)C)[C@@H](C)O)C(C)C)[C@@H](C)O; target = Proprotein convertase subtilisin/kexin type 9 (PCSK9, Homo sapiens, UniProt Q8NBP7); test = binding, biolayer interferometry; endpoint = Kd; result = 660 ± 110 nM
Structure (SMILES) = CC(C)C[C@@H]1NC(=O)[C@H](CCCNC(=N)N)NC(=O)[C@H](Cc2c[nH]c3ccccc23)NC(=O)[C@H](CC(C)C)NC(=O)[C@H](CC(N)=O)NC(=O)[C@](C)(NC(=O)[C@H](Cc2ccccc2)NC(=O)[C@@H](NC(=O)[C@H](CCC(N)=O)NC(=O)[C@H](CCC(N)=O)NC(=O)[C@H](CO)NC(=O)[C@H](CCC(N)=O)NC(=O)CCNC(=S)Nc2ccc3c(c2)C(=O)OC32c3ccc(O)cc3Oc3cc(O)ccc32)[C@@H](C)O)CCCCCCC=CCCC[C@@](C)(C(=O)N[C@@H](CCC(N)=O)C(=O)N[C@@H](CC(N)=O)C(N)=O)NC(=O)[C@H](CC(C)C)NC1=O; target = HDM2; endpoint = Kd; result = 55 ± 11 nM
Structure (SMILES) = CCN(CC)CCCC[C@H](NC(=O)[C@H](CC(C)C)NC(=O)[C@H](C)NC(=O)[C@H](Cc1ccccc1)NC(=O)c1ccc(C(C)(C)C)cc1)C(=O)N[C@@H](CO)C(=O)OC; target = human CBX1 chromodomain; endpoint = Kd; result = > 100000 nM
Structure (SMILES) = CCCCCCCc1c(C(=O)NCCc2ccc(N3CCCCC3)cc2)[nH]c2ccc(Cl)cc12; target = CNR1; test = allosteric modulator, radioligand binding; setting = with: [3H]CP55,940; endpoint = Kb; result = 651 nM
Structure (SMILES) = CC1(C)S[C@H]2CS[C@H](CS)N2[C@@H]1C(=O)O; target = Metallo-beta-lactamase VIM-2 (VIM-2, Escherichia coli, UniProt Q5U7L7); test = inhibitor; endpoint = Ki; result = 6000 ± 1000 nM
